Measurements collected from several papers.
Parts stem from different laboratories: compare values within a part only. Several values in a cell are separate wells, animals, samples, runs or records.
UniProt Q8TD19, sequence (whole entry, looked up): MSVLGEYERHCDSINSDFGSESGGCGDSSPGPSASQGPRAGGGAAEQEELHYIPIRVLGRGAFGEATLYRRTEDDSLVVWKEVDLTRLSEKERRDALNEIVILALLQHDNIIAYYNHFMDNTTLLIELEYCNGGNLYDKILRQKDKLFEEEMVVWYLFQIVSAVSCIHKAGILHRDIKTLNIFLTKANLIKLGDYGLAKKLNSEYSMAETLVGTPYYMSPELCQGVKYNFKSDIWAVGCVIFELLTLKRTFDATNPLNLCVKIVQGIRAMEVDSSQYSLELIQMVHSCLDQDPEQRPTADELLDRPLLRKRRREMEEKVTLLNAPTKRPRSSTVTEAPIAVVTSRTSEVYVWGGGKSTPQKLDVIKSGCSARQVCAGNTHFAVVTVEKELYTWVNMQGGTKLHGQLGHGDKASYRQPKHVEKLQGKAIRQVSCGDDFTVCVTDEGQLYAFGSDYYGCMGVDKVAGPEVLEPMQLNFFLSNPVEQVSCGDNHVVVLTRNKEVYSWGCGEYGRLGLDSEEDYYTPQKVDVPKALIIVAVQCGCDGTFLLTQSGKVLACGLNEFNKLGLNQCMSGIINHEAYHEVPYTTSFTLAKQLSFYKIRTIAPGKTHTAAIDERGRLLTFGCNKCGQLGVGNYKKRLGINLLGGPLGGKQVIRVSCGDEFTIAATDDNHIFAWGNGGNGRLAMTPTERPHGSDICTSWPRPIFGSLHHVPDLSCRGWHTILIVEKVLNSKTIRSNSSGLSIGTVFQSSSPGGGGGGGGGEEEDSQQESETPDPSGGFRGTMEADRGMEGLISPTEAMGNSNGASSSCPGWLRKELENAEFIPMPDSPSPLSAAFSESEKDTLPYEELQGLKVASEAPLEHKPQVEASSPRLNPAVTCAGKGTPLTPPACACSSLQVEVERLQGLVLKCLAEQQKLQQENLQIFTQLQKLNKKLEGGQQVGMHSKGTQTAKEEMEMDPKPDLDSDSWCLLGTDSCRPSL
UniProt O95382, sequence (whole entry, looked up): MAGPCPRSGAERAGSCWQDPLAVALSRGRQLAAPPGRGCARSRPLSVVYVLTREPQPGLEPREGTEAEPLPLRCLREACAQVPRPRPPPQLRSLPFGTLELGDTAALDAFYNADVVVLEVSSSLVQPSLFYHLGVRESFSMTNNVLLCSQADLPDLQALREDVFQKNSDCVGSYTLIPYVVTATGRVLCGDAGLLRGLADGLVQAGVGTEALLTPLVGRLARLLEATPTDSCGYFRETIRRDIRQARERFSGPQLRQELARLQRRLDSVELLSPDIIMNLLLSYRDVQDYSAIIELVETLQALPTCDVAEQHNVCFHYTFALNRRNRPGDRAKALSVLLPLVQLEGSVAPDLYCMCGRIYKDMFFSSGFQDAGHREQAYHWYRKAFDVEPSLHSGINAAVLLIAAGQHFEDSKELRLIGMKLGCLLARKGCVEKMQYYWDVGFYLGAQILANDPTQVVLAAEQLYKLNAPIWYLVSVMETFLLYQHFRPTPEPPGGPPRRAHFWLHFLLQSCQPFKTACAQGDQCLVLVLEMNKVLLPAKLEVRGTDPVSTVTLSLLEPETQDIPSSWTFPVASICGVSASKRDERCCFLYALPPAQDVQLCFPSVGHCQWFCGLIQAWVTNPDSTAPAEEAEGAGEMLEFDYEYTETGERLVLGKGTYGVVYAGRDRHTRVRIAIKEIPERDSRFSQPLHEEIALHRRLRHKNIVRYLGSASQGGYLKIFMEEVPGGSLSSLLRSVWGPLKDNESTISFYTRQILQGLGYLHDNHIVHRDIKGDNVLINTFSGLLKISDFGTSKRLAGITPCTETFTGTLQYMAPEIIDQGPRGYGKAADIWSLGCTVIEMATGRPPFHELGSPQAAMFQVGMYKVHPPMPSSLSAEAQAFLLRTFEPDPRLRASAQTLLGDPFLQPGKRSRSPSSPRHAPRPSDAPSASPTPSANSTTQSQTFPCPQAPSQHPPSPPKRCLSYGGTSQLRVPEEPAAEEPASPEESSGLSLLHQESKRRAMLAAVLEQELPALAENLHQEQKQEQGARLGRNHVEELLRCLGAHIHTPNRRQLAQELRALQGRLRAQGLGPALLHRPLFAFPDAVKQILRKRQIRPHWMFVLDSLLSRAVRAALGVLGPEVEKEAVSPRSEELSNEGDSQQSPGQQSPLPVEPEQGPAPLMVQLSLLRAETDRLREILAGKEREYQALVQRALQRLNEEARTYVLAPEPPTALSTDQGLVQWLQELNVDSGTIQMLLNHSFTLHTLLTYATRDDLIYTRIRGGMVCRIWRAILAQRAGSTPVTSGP
UniProt Q96L34, sequence (whole entry, looked up): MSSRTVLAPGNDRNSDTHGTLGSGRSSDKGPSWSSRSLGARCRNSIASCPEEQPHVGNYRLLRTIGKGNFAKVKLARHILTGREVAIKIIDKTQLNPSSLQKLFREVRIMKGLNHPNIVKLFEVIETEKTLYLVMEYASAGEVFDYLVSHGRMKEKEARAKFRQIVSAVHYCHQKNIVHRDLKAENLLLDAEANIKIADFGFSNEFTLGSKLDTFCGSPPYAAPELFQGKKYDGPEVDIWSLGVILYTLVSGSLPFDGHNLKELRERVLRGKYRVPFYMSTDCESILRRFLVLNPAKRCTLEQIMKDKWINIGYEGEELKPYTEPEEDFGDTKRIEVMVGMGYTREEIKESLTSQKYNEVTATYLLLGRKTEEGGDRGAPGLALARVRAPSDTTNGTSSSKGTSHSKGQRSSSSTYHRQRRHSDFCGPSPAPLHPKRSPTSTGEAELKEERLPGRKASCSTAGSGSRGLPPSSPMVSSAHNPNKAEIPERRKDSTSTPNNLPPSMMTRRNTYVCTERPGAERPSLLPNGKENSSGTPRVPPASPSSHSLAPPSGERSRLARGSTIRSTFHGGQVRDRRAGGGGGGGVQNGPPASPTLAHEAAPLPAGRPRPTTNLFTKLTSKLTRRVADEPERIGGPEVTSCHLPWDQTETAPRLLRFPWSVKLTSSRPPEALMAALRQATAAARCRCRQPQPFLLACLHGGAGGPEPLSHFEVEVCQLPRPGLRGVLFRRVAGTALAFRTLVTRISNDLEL
UniProt P36894, sequence (whole entry, looked up): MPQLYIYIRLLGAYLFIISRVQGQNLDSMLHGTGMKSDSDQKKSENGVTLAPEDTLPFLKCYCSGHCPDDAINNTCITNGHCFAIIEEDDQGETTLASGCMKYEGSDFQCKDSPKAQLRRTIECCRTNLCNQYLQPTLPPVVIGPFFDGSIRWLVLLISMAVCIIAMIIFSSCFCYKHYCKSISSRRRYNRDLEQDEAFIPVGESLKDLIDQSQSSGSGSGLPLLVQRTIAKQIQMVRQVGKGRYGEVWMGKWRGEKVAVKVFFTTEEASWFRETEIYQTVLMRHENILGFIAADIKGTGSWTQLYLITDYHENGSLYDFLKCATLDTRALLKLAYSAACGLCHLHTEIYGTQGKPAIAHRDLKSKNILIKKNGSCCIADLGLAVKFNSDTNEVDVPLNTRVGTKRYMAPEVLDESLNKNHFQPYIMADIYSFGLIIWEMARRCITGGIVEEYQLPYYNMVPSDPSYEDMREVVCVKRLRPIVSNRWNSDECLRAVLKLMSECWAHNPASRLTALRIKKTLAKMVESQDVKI
UniProt O15111, sequence (whole entry, looked up): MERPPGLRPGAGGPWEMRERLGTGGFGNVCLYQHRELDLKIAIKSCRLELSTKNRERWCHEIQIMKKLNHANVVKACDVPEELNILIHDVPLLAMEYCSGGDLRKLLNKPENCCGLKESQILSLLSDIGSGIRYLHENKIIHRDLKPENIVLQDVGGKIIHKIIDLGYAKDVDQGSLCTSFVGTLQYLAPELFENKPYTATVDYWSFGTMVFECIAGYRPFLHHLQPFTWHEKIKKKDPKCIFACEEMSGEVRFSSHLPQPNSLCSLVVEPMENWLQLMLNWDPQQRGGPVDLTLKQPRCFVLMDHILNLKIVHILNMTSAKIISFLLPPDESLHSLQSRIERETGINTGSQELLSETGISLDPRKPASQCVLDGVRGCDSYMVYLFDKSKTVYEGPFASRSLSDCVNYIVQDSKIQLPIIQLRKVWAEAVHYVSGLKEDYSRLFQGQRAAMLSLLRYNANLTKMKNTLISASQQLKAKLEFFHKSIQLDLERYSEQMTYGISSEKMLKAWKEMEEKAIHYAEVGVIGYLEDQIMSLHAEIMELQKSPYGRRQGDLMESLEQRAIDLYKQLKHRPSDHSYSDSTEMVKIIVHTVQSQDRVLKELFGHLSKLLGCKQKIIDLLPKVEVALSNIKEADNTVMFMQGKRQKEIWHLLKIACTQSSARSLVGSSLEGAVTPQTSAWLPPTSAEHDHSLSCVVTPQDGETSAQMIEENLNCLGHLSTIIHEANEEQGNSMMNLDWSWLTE
UniProt Q8TD08, sequence (whole entry, looked up): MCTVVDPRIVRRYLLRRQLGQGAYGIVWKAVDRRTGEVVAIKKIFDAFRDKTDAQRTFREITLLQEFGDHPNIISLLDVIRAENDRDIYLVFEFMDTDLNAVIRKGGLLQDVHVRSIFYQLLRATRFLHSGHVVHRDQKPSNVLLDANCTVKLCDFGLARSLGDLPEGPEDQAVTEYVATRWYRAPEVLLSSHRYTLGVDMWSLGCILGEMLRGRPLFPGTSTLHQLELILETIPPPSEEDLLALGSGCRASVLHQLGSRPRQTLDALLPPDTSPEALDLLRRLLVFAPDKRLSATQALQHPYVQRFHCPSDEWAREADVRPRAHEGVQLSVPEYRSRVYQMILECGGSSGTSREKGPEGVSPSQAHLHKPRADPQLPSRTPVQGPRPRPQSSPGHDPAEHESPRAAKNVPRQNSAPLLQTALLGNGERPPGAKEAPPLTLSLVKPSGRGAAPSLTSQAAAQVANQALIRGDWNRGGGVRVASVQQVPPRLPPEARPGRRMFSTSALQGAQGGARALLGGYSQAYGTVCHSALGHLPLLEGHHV

Sample 1
SMILES: CNC(=O)c1ccc(-c2cnn3ccc(C(=O)N(C)c4ccc(Cl)c(C(=O)O)c4)cc23)cc1
Effect on: enzyme activity
target | assay | IC50 [µM]
human phosphodiesterase 3 |  | > 30
PIM1 (Homo sapiens, UniProt P11309) | inhibitor | > 30
FGFR4 (Homo sapiens, UniProt P22455) | inhibitor | > 30
RET (Homo sapiens, UniProt P07949) | inhibitor | > 30
MAPKAPK2 (Homo sapiens, UniProt P49137) | inhibitor | > 30
SYK (Homo sapiens, UniProt P43405) | inhibitor | > 30
RAF1 (Homo sapiens, UniProt P04049) | inhibitor | > 30
PKN2 (Homo sapiens, UniProt Q16513) | inhibitor | > 30
MET (Homo sapiens, UniProt P08581) | inhibitor | > 30
FLT1 (Homo sapiens, UniProt P17948) | inhibitor | > 30
FGFR2 (Homo sapiens, UniProt P21802) | inhibitor | > 30
ABL1 (Homo sapiens, UniProt P00519) | inhibitor | > 30
WEE1 (Homo sapiens, UniProt P30291) | inhibitor | > 30
Tribbles homolog 2 (TRIB2, Homo sapiens, UniProt Q92519) | inhibitor | 11.9
MAPK14 (Homo sapiens, UniProt Q16539) | inhibitor | > 30
PRKAA2 (Homo sapiens, UniProt P54646) | inhibitor | > 30
MAP3K2 (Homo sapiens, UniProt Q9Y2U5) | inhibitor | > 30

Sample 2
Cell line: mouse MPNST tumor cells
Method: high-content nuclear imaging
Measured: cell number
Tested at: 10 µM
Time: 12 h
Notes: mean of 2 replicates
Relative to: plate mean
Direction: higher = more cells
SMILES | nuclei count
C[C@H](N)[C@H](O)c1ccc(O)c(O)c1 | 1.93 z-score
C[C@]12CC[C@H](O)C[C@H]1CC[C@@H]1[C@@H]2CC[C@]2(C)[C@@](O)(c3ccoc3)CC[C@]12O | 1.26 z-score
N[C@@H]1C[C@H]1c1ccccc1 | -1.56 z-score and 0.577 z-score
Clc1ccc(OC[C@H]2CCN2)cn1 | 0.0306 z-score

Sample 3
Cell line: Huh-7
Tested at: 10 µM
Time: 24 h
SMILES | viability [%]
C[C@@H]1[C@H](O)[C@@H](C)/C=C/C=C/CC/C=C/C=C/C=C/C=C/[C@H](O[C@@H]2O[C@H](C)[C@@H](O)[C@H](N)[C@@H]2O)C[C@@H]2O[C@](O)(C[C@@H](O)[C@H](O)CC[C@@H](O)C[C@@H](O)C[C@@H](O)CC(=O)O[C@H]1C)C[C@H](O)[C@H]2C(=O)O | 98.1
OC1CCCCC1N1CCC(c2ccccc2)CC1 (centres unmarked) | 101
CC(=O)Nc1cc([As](=O)(O)O)ccc1O | 103

Sample 4
Target: His6 tag
Method: AlphaScreen counter screen
Tested at: concentration not given
SMILES | inhibition
COC(=O)c1ccc(NC=C2C(=O)NC(=O)N(C)C2=O)cc1 | 3.45%
COc1cccc(N2C(=O)NC(=O)C(=CNc3ccc(F)cc3)C2=O)c1 | -3.45%
Nc1ncnc2c1ncn2[C@@H]1O[C@H](COP(=O)(O)CP(=O)(O)O)[C@@H](O)[C@H]1O | 4.5%
COC[C@H]1OC(=O)c2coc3c2[C@@]1(C)C1=C(C3=O)[C@@H]2CCC(=O)[C@@]2(C)C[C@H]1OC(C)=O | 5%

Sample 5
Compound: N#CC1(c2ccccn2)CCN(Cc2cc(C(=O)O)c(=O)n3ccccc23)CC1
Method: competition with immobilised ligand
Tested at: 1 µM
target | assay | remaining binding [%]
STK17B (Homo sapiens, UniProt O94768) | cell-free assay | 100
MAP3K6 (Homo sapiens, UniProt O95382) | cell-free assay | 100
PRPF4B (Homo sapiens, UniProt Q13523) | cell-free assay | 100
VRK2 (Homo sapiens, UniProt Q86Y07) | cell-free assay | 100
EGFR (Homo sapiens, UniProt P00533, L858R) | cell-free assay | 86
Ribosomal protein S6 kinase alpha-1, N-terminal kinase domain (RPS6KA1, Homo sapiens, UniProt Q15418) | cell-free assay | 94
CHUK (Homo sapiens, UniProt O15111) | cell-free assay | 100
Tyrosine-protein kinase ABL1, non-phosphorylated (ABL1, Homo sapiens, UniProt P00519, H396P) | cell-free assay | 80
RIOK3 (Homo sapiens, UniProt O14730) | cell-free assay | 96
PRKD2 (Homo sapiens, UniProt Q9BZL6) | cell-free assay | 99
MAP4K5 (Homo sapiens, UniProt Q9Y4K4) | cell-free assay | 87
TNK1 (Homo sapiens, UniProt Q13470) | cell-free assay | 93
KIT (Homo sapiens, UniProt P10721, V559D) | cell-free assay | 100
MARK4 (Homo sapiens, UniProt Q96L34) | cell-free assay | 98
SBK1 (Homo sapiens, UniProt Q52WX2) | cell-free assay | 83
BRAF (Homo sapiens, UniProt P15056, V600E) | cell-free assay | 100
NEK9 (Homo sapiens, UniProt Q8TD19) | cell-free assay | 100
RIOK2 (Homo sapiens, UniProt Q9BVS4) | cell-free assay | 92
MAPK15 (Homo sapiens, UniProt Q8TD08) | cell-free assay | 100
INSRR (Homo sapiens, UniProt P14616) | cell-free assay | 97
CDC42BPB (Homo sapiens, UniProt Q9Y5S2) | cell-free assay | 96
BMPR1A (Homo sapiens, UniProt P36894) | binding | 97
PTK6 (Homo sapiens, UniProt Q13882) | cell-free assay | 100
CDKL3 (Homo sapiens, UniProt Q8IVW4) | cell-free assay | 89
CILK1 (Homo sapiens, UniProt Q9UPZ9) | binding | 75
